Measured values of several laboratories.
A part holds a random share of what one study measured.

Set 1 — method: protein-binding microarray; molecule type: double-stranded DNA, one strand shown; sample: in vitro; concentration: not given; reading: higher = stronger binding
Target: Protein C-ets-1 (ETS1, Homo sapiens, UniProt P14921, residues 1-441, Y397A, full length assumed)
Notes: k-mer, scored over probes, only values ≥0.25
Construct (chain): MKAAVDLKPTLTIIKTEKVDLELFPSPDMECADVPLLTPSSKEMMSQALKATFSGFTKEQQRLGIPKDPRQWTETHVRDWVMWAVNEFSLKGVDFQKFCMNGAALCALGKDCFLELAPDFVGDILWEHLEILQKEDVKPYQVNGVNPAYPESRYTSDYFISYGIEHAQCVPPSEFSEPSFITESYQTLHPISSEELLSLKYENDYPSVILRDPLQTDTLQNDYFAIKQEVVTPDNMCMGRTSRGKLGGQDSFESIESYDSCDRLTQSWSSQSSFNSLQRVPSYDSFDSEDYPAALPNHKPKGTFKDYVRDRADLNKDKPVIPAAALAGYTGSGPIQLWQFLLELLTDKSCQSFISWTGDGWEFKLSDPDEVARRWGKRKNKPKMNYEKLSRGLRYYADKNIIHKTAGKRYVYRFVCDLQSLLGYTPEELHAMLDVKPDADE
`CAATGTGA` gave an E-score of 0.289.
The E-score of `GATGGCAA` is reported as 0.286.
With `TGTATACA` the E-score was 0.278.
`AACAGACA` gave an E-score of 0.303.
`TGGCAAAA` has an E-score of 0.415.
`CGGCGGAA` gave an E-score of 0.257.

Set 2 — method: protein binding microarray; molecule type: double-stranded DNA, one strand shown; sample: in vitro; concentration: not given; baseline: not given; reading: higher = stronger binding
Target: Histone acetyltransferase KAT6A, winged helix 2, GST fusion (KAT6A, Homo sapiens, UniProt Q92794, residues 85-181)
Notes: 8-mer, flanks averaged, mean of 2 arrays, mostly near background
Residues (chain): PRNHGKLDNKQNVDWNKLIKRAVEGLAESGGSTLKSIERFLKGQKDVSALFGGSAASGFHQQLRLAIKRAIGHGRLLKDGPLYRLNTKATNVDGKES
`CAAATGGC` gave an E-score of -0.084.
The E-score of `AATGTTCC` is reported as -0.041.
`CCTCCTTC` has an E-score of -0.0216.
`ATGCGAAC` gave an E-score of 0.0366.
For `GATACGAA`, the E-score was 0.0888.
With `CTCTGTTA` the E-score was -0.0649.
`AATATAGT` gave an E-score of 0.000435.
For `CTCCCGAC`, the E-score was 0.0755.
`GTGCCACA` has an E-score of -0.0715.
For `ATGAGAAA`, the E-score was 0.0474.
For `CCACACTA`, the E-score was 0.0614.

Set 3 — method: protein-binding microarray; molecule type: double-stranded DNA, one strand shown; sample: in vitro; concentration: 0.8 µM; notes: whole 60-bp probe, no competitor; reading: higher = stronger binding; all sequences stand within: … GTCTTGATTCGCTTGACGCTGCTG
Target: Centromere-binding protein 1, full length, N-terminal tag (CBF1, Saccharomyces cerevisiae, UniProt P17106, residues 1-351)
Chain of UniProt P17106 (whole entry, looked up): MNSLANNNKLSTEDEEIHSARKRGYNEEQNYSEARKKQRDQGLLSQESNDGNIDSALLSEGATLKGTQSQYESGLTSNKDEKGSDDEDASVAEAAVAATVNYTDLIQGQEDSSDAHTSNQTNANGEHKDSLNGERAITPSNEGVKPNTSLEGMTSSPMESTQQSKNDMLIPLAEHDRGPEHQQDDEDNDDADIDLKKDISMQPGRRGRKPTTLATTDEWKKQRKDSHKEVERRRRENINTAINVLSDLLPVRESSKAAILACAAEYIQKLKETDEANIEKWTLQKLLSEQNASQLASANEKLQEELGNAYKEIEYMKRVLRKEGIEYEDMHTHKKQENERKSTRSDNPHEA
With `GAAGGCAAATATCATGGTGACACGCTTATAGATTAG` the fluorescence intensity was 594 a.u.
For `CTATCATGGCGCCATCACCCGCAGGGAATATAATTC`, the fluorescence intensity was 489 a.u.
With `GAAACCACCGTGGGTCACCTTTTTCTTGCGCCTTAG` the fluorescence intensity was 487 a.u.
`GAAACATGCCTATGTTTCGTGCTTTTGCCGATTTAG` gave a fluorescence intensity of 469 a.u.
With `CTAGCAAAGGGGTAGTACGTGGCACCTCCTAAATTC` the fluorescence intensity was 490 a.u.
`GAATCAAATTCGTCACACGTTTCCAATTTGCAATAG` has a fluorescence intensity of 725 a.u.
For `CTATATCTTCTCTTTCACGATATAGATTCACGCTTC`, the fluorescence intensity was 569 a.u.
`CTAATTTAACTTAGCTGCATCACCGTTGAGCCTTTC` has a fluorescence intensity of 528 a.u.
`CCTAACTACTATACGCGCGTGCTATAGCTTCGTACA` has a fluorescence intensity of 648 a.u.
The fluorescence intensity of `CTAAAAGGTGCCAGTGACGTGATGGTTACGCCTTTC` is reported as 547 a.u.

Mixed results
For `PhoQ, residues 284 288 289 292 302 303 SSYNSA`, the fold induction was 6.81 (PhoP, residues 12 14 15 18 19 QYCSL (Escherichia coli, UniProt P23836); Sort-seq, refers to: YFP reporter; E. coli; PhoQ-PhoP variant library, added: 10 µM Mg2+; baseline: high Mg2+ state, higher = stronger signaling).

A few entries again (set 3):
For `CTATATCTTCTCTTTCACGATATAGATTCACGCTTC`, the fluorescence intensity was 569 a.u.
`CTAATTTAACTTAGCTGCATCACCGTTGAGCCTTTC` has a fluorescence intensity of 528 a.u.
`CCTAACTACTATACGCGCGTGCTATAGCTTCGTACA` has a fluorescence intensity of 648 a.u.
